Results gathered from unrelated publications.
A part holds a random share of what one study measured. Changes are numbered by the printed parent chain.
UniProt O15264, sequence (whole entry, looked up): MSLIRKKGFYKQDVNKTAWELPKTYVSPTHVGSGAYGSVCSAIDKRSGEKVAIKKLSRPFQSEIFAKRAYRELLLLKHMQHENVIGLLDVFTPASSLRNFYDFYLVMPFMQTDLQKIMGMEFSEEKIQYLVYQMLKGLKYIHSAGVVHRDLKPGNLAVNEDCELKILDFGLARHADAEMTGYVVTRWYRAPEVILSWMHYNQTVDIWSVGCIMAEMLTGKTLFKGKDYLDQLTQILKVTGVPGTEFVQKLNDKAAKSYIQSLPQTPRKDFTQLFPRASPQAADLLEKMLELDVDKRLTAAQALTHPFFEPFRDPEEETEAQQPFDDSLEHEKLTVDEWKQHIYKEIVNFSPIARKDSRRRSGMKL

Set 1
Target: BATF2, bZIP domain (human)
Technique: DHFR protein complementation
Matrix: yeast
Setting: single substitutions, most at no-binding floor
Baseline: wild-type JUN-FOS pair
Direction: higher = stronger binding
Starting sequence: JUN, bZIP domain (human); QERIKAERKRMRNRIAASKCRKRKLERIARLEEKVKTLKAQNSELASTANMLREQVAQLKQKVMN; partner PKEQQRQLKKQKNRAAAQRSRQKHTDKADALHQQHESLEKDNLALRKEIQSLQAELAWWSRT
| Variant | binding fitness [natural log] |
| --- | --- |
| L31Y | -0.855 |
| K34F | -0.994 |
| V56A | -1.12 |
| Q55W | -1.01 |
| K34M | -0.386 |
| K36A | -0.132 |
| A29I | -0.343 |
| L45N | -1.48 |

Set 2
Target: Sal-like protein 4, full length isoform A (SALL4, Homo sapiens, UniProt Q9UJQ4, residues 1-1053)
UniProt Q9UJQ4, sequence (whole entry, looked up): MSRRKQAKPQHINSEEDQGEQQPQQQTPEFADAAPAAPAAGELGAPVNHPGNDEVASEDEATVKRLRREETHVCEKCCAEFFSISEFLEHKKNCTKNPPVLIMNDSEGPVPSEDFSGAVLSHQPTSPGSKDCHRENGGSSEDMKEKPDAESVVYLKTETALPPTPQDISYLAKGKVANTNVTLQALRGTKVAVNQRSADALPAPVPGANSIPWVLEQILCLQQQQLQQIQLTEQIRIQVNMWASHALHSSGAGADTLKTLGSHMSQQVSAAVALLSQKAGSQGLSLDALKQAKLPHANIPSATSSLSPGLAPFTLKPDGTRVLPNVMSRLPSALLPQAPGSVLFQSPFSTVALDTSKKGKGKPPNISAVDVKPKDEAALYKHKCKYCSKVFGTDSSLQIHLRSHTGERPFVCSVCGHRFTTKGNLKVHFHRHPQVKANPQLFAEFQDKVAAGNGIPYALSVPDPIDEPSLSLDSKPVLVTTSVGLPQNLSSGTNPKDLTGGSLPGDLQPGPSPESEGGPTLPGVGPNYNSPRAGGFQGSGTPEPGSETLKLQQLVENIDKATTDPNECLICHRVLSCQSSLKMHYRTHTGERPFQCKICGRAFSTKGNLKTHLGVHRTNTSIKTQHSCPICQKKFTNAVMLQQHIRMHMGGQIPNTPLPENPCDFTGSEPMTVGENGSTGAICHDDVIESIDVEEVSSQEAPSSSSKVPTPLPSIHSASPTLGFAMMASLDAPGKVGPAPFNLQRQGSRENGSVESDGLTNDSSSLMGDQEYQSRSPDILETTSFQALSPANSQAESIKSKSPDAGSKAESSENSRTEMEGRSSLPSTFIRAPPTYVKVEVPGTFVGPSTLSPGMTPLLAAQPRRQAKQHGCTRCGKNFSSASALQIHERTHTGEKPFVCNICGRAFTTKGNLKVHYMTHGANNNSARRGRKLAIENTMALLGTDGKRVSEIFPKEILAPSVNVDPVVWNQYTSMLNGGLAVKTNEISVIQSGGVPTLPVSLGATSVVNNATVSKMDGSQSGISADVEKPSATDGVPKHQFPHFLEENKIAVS
Technique: universal PBM
Molecule type: double-stranded DNA, one strand shown
Matrix: in vitro
Concentration: 600 nM
Setting: 8-mer, flanks averaged, mean of replicates
Direction: higher = stronger binding
| Strand | E-score |
| --- | --- |
| AAGATTCG | 0.0863 |
| GGTCTCAA | -0.124 |
| CCTGTATC | 0.0991 |
| ATTACAAA | 0.315 |
| CTTCAGAC | -0.11 |
| AGCCGCAG | -0.4 |
| AATAATGT | 0.335 |
| GGGAGCAC | -0.257 |

Set 3
Target: Probable WRKY transcription factor 33, N-terminal DNA-binding domain (WRKY33, Arabidopsis thaliana, UniProt Q8S8P5, residues 169-264)
Technique: DNA-protein interaction ELISA
Molecule type: double-stranded DNA, one strand shown
Matrix: in vitro, bacterial lysate
Concentration: not given
Setting: whole dsDNA probe, crude lysate protein
Baseline: highest signal in screen
Direction: higher = stronger binding
Target sequence (chain): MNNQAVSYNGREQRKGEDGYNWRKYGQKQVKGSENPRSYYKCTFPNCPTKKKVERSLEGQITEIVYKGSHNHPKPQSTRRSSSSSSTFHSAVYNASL
| Strand | relative absorbance |
| --- | --- |
| AAAAAAGCTAGTCGATTCGGCTTAGAAAAA | 21.9 % of maximum |
| AAAAAAGTCTAGTCGTAAAAA | 38.6 % of maximum |
| AAAAAAACTTTCTATTCTGGATAAGTAAAA | 17.4 % of maximum |
| AAAAAAGGGAGTCATGCTTCTTGTTTAAAA | 30.7 % of maximum |
| AAAAAAATGTTCAAGCTCGATCTACAAAAA | 15.7 % of maximum |
| AAAAAAAATACTGCGCACTTGCACTCAAAA | 21.5 % of maximum |
| AAAAAACCCGTTCTACCTTATTCCTGAAAA | 26 % of maximum |
| AAAAAATATGCTACTCCACCTTGATGAAAA | 22 % of maximum |

Single results of other studies
| Structure (SMILES) | target | read-out | mode | concentration | baseline | measurement | value |
| --- | --- | --- | --- | --- | --- | --- | --- |
| CN1CCN(c2ccc3nc(-c4c(N)c5c(F)cccc5[nH]c4=O)[nH]c3c2)CC1 | Mitogen-activated protein kinase 13 (MAPK13, Homo sapiens, UniProt O15264) | enzyme activity | inhibitor | 0.5 µM | control | remaining activity | 90.4% |

Excerpt of the above (set 2):
| Strand | E-score |
| --- | --- |
| CCTGTATC | 0.0991 |
| ATTACAAA | 0.315 |
| CTTCAGAC | -0.11 |
